Assay results from different studies.
Lines come from different studies, so protocols differ.
Target: Serine/threonine-protein kinase PAK 4 (PAK4, Homo sapiens, UniProt O96013)
Chain of UniProt O96013 (whole entry, looked up): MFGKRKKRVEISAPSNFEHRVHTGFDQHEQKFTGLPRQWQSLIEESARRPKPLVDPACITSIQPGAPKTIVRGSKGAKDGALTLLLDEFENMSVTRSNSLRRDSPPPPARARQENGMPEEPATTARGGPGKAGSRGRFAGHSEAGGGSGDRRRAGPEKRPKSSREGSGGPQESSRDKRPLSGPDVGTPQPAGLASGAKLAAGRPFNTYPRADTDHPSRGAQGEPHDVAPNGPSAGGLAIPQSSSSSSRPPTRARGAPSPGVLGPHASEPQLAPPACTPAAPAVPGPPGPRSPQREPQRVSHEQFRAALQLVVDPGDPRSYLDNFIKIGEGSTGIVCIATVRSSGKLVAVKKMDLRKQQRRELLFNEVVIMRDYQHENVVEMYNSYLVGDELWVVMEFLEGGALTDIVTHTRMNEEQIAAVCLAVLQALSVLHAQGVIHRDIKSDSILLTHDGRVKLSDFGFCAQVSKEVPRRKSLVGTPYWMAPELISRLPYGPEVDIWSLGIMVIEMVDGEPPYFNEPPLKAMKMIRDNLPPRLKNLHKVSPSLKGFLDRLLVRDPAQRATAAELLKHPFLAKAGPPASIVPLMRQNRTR

| SMILES | assay | setting | scale | endpoint | result |
| --- | --- | --- | --- | --- | --- |
| O=C(NC1CCC1)c1ccc2nc(-c3cccc(NS(=O)(=O)NCCN4CCCCC4)c3)cn2c1 | enzyme activity | 10 µM | – | remaining activity | 100% |
| C=CC(=O)N1CCC(C(=O)NCC(=O)N2CCN(c3nc(-c4cnc(N)nc4C(F)F)nc(N4CCOCC4)n3)CC2)CC1 | KINOMEscan | 1 µM | – | remaining binding | 99% |
| CN(C)CC#Cc1ccc2[nH]c3c(c2c1)-c1nc(N)ncc1CCC3 | kinase activity, inhibitor, radiometric | 1 µM, together with: ATP at Km | – | remaining activity | 72% |
| CN1CC(Oc2cnc(C#N)cc2-c2ccn3nc(NC(=O)C4CC4)cc3c2)C1 | inhibitor, KinaseProfiler panel | 1 µM | – | inhibition | 9% |
| O=C1NC(=O)/C(=C/c2ccc(-c3ccc(F)cc3O)o2)S1 | enzyme activity | 10 µM | – | remaining activity | 65% |
| COCCNc1nc2ccc(C#CC3(O)CCCCC3)cc2n1-c1ccnc(N)n1 | enzyme activity, inhibitor, Z'-LYTE | 1 µM | relative to: no-inhibitor control | remaining kinase activity | 91.1% |
| Cc1cc(Nc2cc(N3CCN(C)CC3)nc(Sc3ccc(NC(=O)C4CC4)cc3)n2)[nH]n1 | kinase activity, KinaseProfiler | 0.03 µM, species human | relative to: control | remaining activity | 124% |
| COc1cc(-c2cncc3c2CN(C)Cc2cc(N4CCNCC4)ccc2-3)cc(OC)c1OC | kinase activity | 1 µM, human enzyme, together with: ATP 10 µM | relative to: DMSO control | remaining activity | 108% |
| C=CC(=O)N1CCC(COCC(=O)N2CCN(c3nc(-c4cnc(N)nc4C(F)F)nc(N4CCOC[C@@H]4C)n3)CC2)CC1 | KINOMEscan | 1 µM | – | remaining binding | 88% |
| COc1cc(F)ccc1-c1ncnc(Nc2cccc(C[S@](C)(=N)=O)c2)n1 | kinase activity | 10 µM, together with: 10 µM ATP | – | remaining activity | 89% |

Excerpt of the above:
| SMILES | assay | setting | scale | endpoint | result |
| --- | --- | --- | --- | --- | --- |
| O=C(NC1CCC1)c1ccc2nc(-c3cccc(NS(=O)(=O)NCCN4CCCCC4)c3)cn2c1 | enzyme activity | 10 µM | – | remaining activity | 100% |
